Published values pooled from the literature.
Numbered parts are unrelated; each lists some results of a single study.
Sequence of UniProt P28335 (whole entry, looked up): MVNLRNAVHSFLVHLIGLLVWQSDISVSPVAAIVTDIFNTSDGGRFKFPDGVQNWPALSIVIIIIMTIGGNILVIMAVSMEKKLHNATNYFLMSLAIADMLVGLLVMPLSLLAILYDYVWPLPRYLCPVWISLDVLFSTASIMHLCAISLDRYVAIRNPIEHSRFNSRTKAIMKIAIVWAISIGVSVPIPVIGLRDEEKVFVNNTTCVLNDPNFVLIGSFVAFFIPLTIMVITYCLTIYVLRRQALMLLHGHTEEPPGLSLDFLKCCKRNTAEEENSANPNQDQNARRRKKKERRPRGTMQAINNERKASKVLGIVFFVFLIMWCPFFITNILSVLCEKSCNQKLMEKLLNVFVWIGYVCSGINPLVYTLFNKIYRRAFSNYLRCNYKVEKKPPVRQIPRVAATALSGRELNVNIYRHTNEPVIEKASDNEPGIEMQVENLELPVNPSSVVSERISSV
Sequence of UniProt P28223 (whole entry, looked up): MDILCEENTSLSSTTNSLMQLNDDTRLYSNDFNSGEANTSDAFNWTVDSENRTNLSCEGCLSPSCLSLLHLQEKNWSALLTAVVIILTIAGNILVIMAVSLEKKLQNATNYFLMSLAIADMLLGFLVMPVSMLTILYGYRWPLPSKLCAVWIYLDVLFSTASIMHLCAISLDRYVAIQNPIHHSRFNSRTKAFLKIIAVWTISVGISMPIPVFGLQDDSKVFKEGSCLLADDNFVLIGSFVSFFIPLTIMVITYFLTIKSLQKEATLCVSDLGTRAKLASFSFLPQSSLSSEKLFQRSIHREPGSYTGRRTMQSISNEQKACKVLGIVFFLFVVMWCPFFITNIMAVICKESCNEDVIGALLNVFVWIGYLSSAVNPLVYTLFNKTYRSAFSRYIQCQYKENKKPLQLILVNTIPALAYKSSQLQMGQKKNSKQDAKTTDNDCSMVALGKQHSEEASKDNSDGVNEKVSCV
Sequence of UniProt P08908 (whole entry, looked up): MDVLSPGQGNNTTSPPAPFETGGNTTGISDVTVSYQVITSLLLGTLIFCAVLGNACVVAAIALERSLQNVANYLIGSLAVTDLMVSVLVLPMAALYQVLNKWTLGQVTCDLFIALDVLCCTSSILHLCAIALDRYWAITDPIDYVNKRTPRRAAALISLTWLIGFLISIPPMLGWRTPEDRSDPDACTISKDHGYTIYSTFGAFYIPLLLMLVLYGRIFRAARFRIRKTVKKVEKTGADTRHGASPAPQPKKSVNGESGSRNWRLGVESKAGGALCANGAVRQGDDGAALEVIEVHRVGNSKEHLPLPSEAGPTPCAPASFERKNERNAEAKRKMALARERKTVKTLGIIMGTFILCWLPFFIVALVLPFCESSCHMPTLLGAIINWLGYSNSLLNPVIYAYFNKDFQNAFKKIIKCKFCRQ

Set 1
Structure (SMILES): COc1nc2ccc([C@@](O)(c3ccccc3)C3CCN(C(C)=O)CC3)cc2c(Cl)c1Cc1ccc(-n2cccn2)cc1
Effect on: binding
Method: radioligand binding
Concentration: 10 µM
HTR1A (Homo sapiens, UniProt P08908) — inhibition: 16.6%.
HTR2C (Homo sapiens, UniProt P28335) — inhibition: 21.2%.
For HTR2A (Homo sapiens, UniProt P28223): inhibition read 6.87%.

Other studies, line by line
ADRB1: Beta-1 adrenergic receptor (ADRB1, Homo sapiens, UniProt P08588)
Sequence of UniProt P08588 (whole entry, looked up): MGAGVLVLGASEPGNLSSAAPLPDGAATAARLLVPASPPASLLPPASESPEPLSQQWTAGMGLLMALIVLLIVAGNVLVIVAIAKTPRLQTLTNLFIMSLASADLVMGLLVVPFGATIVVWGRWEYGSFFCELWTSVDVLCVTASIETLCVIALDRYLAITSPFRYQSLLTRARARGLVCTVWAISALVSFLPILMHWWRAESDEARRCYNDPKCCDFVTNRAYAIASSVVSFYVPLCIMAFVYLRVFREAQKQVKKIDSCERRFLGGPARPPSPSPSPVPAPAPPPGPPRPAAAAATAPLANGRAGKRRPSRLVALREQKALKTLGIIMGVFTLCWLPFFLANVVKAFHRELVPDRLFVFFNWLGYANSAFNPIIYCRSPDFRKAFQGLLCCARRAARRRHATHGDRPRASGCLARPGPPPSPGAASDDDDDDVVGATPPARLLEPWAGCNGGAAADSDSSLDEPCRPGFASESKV
CAMK2A: Calcium/calmodulin-dependent protein kinase type II subunit alpha (CAMK2A, Homo sapiens, UniProt Q9UQM7)
Sequence of UniProt Q9UQM7 (whole entry, looked up): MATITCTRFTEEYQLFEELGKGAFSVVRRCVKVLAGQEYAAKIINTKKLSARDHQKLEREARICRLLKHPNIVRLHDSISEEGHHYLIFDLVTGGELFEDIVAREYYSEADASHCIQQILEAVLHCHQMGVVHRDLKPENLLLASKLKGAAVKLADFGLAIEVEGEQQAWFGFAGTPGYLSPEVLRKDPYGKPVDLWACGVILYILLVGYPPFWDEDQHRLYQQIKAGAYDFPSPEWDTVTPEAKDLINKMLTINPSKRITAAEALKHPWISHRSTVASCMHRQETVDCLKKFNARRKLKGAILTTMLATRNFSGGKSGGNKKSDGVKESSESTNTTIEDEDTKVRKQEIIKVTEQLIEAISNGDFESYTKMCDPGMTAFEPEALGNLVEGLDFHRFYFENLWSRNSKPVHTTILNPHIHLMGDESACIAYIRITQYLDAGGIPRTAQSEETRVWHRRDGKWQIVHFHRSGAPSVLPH
The IC50 of `O=C(O)c1ccc2[nH]cc(CCCCN3CC=C(c4ccccc4)CC3)c2c1` is reported as at least 100 µM (ADRB1; antagonist).
For `CN1CCCC(=C(c2cccs2)c2cccs2)C1`, the inhibition was 2% (CAMK2A; enzyme activity, inhibitor; 10 µM).
Under “log2 fold change”, `COc1ccc2[nH]cc(CCN)c2c1` is recorded as 0.41 (Sarcocystis neurona; parasite growth; 10 µM, second screen; reference: untreated).
`CCCN(CCC)[C@H]1CCc2c(O)cccc2C1` gave an IC50 of at least 100 µM (ADRB1; antagonist).
The inhibition of `COc1cc2c3c(c1OC)-c1ccccc1C[C@H]3N(C)CC2` is reported as 49% (CAMK2A; enzyme activity, inhibitor; 10 µM).

Excerpt of the above (set 1):
For HTR2A (Homo sapiens, UniProt P28223): inhibition read 6.87%.
